Assay results of several laboratories.
Lines come from different studies, so protocols differ. ± gives the spread as reported.
OPRL1: Nociceptin receptor (OPRL1, Homo sapiens, UniProt P41146)
Ricin A chain: Ricin, A chain (Ricinus communis, UniProt P02879)

Protein sequences, listed by entry. Tags and fused reporters are not part of them. Residues count along the entry.
UniProt P41146, whole entry: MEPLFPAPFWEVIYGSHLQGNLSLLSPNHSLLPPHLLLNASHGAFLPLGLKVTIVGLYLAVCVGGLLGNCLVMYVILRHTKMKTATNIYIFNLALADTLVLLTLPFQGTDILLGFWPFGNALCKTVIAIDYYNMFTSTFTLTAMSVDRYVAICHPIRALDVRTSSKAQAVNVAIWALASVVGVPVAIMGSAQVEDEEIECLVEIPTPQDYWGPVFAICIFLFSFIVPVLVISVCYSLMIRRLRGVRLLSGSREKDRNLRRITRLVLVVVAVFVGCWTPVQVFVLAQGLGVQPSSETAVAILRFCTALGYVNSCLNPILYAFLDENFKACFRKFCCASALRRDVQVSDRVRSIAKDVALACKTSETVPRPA
UniProt Q9GZQ6, whole entry: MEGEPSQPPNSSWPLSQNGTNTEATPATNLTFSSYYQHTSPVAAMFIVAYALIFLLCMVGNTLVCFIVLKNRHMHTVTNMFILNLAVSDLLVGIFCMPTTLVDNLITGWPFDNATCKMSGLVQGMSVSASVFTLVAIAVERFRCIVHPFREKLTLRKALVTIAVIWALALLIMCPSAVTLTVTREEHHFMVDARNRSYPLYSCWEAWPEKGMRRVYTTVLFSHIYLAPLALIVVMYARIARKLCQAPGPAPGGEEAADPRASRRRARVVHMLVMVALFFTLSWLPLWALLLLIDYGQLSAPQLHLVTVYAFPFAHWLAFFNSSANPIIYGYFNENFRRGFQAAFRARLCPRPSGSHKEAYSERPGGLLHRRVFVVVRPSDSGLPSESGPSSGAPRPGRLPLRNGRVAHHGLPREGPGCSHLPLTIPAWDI
UniProt P23953, whole entry, looked up: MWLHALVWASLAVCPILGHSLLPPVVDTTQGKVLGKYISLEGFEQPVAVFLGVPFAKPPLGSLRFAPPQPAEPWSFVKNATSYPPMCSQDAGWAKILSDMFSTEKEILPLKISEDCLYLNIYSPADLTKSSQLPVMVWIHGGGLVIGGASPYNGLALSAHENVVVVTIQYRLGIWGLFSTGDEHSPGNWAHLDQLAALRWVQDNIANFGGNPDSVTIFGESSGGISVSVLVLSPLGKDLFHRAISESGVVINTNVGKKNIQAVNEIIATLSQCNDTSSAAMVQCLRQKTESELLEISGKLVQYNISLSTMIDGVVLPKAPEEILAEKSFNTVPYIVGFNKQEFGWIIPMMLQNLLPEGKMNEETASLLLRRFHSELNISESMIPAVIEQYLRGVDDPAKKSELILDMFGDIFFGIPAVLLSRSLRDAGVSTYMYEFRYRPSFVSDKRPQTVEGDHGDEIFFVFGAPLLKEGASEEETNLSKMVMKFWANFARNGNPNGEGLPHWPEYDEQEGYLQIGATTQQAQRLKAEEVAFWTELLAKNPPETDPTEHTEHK
UniProt P12710, whole entry: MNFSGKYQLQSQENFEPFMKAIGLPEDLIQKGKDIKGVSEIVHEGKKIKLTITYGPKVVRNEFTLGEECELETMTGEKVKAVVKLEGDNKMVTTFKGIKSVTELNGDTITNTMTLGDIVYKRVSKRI
UniProt P49582, 23-502 limits assumed: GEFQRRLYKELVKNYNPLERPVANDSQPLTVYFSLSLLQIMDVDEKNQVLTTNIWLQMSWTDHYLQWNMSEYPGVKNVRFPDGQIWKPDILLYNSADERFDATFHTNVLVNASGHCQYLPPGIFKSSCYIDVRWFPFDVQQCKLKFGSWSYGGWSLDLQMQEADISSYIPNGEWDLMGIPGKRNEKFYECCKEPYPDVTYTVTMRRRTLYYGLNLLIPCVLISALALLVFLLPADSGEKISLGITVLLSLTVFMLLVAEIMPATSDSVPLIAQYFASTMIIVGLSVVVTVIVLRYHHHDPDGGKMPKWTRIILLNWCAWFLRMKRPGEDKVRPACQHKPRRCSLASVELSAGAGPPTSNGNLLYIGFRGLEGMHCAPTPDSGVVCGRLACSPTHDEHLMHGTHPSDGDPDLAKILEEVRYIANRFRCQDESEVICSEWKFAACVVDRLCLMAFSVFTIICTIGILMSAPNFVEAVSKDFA
UniProt P41143, whole entry: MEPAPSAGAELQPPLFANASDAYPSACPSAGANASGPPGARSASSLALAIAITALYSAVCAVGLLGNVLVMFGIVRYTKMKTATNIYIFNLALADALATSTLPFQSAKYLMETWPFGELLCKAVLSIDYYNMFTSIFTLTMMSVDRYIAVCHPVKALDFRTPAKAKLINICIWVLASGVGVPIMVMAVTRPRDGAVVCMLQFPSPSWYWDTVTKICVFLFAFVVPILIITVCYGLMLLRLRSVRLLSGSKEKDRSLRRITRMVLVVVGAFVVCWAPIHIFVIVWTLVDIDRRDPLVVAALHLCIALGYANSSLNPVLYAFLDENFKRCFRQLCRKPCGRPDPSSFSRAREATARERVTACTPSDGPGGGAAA
UniProt P33535, whole entry: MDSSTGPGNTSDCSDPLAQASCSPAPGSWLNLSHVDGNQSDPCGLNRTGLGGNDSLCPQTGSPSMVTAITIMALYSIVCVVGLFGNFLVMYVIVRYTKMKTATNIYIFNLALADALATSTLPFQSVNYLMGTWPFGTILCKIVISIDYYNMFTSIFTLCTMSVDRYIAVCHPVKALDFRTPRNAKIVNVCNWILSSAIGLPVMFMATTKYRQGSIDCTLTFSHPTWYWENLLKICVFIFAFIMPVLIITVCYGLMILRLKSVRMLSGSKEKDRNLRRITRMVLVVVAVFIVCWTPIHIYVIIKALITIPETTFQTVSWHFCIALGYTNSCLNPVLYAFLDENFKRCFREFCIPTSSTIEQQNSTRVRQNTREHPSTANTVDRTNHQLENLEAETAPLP
UniProt P22303, 32-614 limits assumed: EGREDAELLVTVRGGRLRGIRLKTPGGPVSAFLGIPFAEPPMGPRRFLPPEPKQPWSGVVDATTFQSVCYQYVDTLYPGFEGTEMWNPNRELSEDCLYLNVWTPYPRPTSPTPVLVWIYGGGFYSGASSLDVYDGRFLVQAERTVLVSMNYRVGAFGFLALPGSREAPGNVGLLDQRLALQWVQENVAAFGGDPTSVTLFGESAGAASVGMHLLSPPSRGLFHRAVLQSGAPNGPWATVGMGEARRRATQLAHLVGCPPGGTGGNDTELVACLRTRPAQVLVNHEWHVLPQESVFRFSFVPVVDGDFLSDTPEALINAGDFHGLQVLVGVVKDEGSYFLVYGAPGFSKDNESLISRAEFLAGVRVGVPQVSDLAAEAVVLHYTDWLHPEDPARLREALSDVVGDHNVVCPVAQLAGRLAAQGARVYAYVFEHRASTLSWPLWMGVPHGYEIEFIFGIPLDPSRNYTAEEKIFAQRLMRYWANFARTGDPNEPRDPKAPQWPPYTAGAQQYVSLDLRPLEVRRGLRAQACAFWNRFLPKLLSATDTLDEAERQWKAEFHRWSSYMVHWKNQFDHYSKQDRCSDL
UniProt P22303, whole entry, looked up: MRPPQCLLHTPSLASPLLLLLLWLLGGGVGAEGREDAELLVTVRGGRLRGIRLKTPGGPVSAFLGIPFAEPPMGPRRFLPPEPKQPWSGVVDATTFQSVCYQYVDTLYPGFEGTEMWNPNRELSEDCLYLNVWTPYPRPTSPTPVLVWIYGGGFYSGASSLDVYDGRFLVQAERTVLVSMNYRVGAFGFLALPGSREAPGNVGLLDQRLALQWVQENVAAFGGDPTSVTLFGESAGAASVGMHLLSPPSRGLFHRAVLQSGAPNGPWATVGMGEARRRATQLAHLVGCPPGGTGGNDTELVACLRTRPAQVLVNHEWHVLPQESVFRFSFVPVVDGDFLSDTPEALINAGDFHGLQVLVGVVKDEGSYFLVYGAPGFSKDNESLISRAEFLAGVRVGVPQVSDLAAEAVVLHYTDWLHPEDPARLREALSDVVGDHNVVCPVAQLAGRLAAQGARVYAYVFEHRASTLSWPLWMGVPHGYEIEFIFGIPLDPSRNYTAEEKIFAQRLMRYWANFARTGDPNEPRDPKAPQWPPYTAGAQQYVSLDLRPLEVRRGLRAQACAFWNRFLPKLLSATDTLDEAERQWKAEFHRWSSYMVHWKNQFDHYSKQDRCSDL
UniProt Q03311, whole entry, looked up: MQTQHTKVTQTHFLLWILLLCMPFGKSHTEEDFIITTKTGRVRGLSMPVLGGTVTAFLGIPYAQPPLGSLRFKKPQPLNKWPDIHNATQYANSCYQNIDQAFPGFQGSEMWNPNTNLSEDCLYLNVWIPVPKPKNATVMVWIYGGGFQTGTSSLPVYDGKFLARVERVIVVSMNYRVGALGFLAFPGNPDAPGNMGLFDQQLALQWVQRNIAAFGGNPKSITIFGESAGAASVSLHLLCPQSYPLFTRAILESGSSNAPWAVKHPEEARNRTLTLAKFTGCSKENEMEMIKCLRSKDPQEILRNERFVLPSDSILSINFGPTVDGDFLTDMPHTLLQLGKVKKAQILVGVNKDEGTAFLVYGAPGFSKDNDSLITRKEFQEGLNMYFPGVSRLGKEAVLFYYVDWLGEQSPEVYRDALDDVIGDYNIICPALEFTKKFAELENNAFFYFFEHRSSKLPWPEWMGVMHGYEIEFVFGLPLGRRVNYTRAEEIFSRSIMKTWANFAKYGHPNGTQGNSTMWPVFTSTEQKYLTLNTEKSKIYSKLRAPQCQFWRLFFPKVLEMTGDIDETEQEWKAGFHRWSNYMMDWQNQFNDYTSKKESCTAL
UniProt P39045, 50-515 limits assumed: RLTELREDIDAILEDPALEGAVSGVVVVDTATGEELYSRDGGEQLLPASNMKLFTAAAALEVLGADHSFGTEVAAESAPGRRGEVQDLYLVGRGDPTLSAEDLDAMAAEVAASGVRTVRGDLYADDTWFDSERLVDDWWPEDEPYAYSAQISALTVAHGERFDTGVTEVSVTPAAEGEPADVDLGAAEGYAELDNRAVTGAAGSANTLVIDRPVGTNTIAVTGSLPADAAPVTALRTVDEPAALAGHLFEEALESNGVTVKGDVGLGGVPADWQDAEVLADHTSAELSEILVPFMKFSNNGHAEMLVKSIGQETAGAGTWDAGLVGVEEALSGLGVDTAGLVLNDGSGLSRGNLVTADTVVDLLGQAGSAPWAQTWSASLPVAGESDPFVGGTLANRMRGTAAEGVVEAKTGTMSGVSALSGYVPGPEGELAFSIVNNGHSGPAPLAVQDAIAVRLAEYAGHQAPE
UniProt P36544, 23-502 limits assumed: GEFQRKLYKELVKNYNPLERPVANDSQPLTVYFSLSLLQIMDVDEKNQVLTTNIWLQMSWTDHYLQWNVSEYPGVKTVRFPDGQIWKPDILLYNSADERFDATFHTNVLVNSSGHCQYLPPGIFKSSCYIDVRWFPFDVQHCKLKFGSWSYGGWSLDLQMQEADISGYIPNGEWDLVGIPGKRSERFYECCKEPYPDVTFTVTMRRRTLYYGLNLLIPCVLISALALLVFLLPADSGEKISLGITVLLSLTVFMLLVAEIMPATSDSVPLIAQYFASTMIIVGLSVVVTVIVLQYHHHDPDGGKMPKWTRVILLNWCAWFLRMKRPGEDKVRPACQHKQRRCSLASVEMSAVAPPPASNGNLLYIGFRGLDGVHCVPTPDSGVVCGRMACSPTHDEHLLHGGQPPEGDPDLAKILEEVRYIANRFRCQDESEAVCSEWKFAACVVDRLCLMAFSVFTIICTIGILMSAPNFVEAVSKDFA

| SMILES | target or system | test | test system | conditions | how to read | endpoint | value |
| --- | --- | --- | --- | --- | --- | --- | --- |
| CCC1C(=O)N(C2CCN(Cc3cccc4[nH]ccc34)CC2)c2ccccc21 (stereo not drawn) | OPRL1 | radioligand displacement | – | added: [3H]N/OFQ | – | Ki | 11.1 ± 0.28 nM |
| NC(=O)c1ccc[n+]([C@@H]2O[C@H](COP(=O)([O-])OP(=O)(O)OC[C@H]3O[C@@H](n4cnc5c(N)ncnc54)[C@H](O)[C@@H]3O)[C@@H](O)[C@H]2O)c1 | guaB (Bacillus anthracis, UniProt A0A6L8P2U9) | substrate | – | – | – | Kii | 3.9 ± 0.5 mM |
| N=C(N)NCC(=O)NCC1(Nc2cccc3ccccc23)CCN(Cc2ccccc2)CC1 | NPFFR1 (Homo sapiens, UniProt Q9GZQ6) | – | – | – | reference: mu and kappa opioid over NPFF1 | selectivity ratio | 7 to 43 fold |
| Cc1cc(=O)oc2cc(NC(=O)CNC(=O)CNC(=O)[C@H](CCCNC(=N)N)NC(=O)[C@H](CC(C)C)NC(=O)[C@H](CCCNC(=N)N)NC(=O)OCc3ccccc3)ccc12 | Replicase polyprotein 1a, papain-like protease (Severe acute respiratory syndrome-related coronavirus, UniProt P0C6U8) | protease activity, substrate | – | – | – | kcat | 62.4 s⁻¹ |
| CCOP(=S)(OCC)Oc1cc(C)nc(C(C)C)n1 | Ces1c (Mus musculus, UniProt P23953) | alpha-naphthyl acetate hydrolysis | ES1+/+ mice, plasma | subcutaneous, 50.0 mg/kg, 2.0 h, toxicant challenge | – | inhibition | 100% |
| Cc1ccc2c(c1)-c1c(ssc1=S)C(C)(C)N2C(=O)CC(C)C | Fatty acid-binding protein, liver (Mus musculus, UniProt P12710) | binding, fluorescence | – | added: NBD-stearic acid 500 nM | – | displacement | ~20% |
| Nc1nc2nc(C(=O)NCc3ccc(F)cc3)cnc2c(=O)[nH]1 | Ricin A chain | differential scanning fluorimetry | – | 500 µM, pH 7.5, 2 µM protein | – | ΔTm | 2 °C |
| O=S1(=O)c2ccc(F)cc2-c2ccc(N3CCN4CCC3CC4)cc21 [fluorine-18 labelled] | Chrna7 (Mus musculus, UniProt P49582) | – | CD-1 mouse, hippocampus and colliculus | dose not given, 90 min, self-blockade | reference: blocked cerebellum | specific binding | 80% |
| NC(=O)c1cnc2c(=O)[nH]c(N)nc2n1 | Ricin A chain | differential scanning fluorimetry | – | 500 µM, pH 7.5, 2 µM protein | – | ΔTm | 1 °C |
| Cc1cc2c(-c3ccco3)cnc(N[C@@H]3CCN(C)C[C@H]3C(=O)NC3CCCCC3)c2[nH]c1=O | OPRD1 (Homo sapiens, UniProt P41143) | binding, radioligand binding | – | 10 µM | – | inhibition | 40.9% |
| Nc1ncnc2c1ncn2[C@@H]1O[C@H](COP(=O)(O)OP(=O)(O)OP(=O)(O)O)[C@@H](O)[C@H]1O | Genome polyprotein, RNA polymerase 3D (Human poliovirus 1 Mahoney, UniProt P03300, K2107H) | pH dependence of kpol | – | – | – | pKa | 6.9 ± 0.3 |
| O=C1Cc2ccccc2N1C1CCN([C@@H]2CC[C@@H]3CCCc4cccc2c43)CC1 | OPRL1 | radioligand displacement | – | added: [3H]N/OFQ | – | Ki | 3.41 ± 0.23 nM |
| NC12CC3CC(CC(C3)C1)C2 | Influenza A virus | viral replication | MDCK, A/Swine/Iowa/11-0918/2010 | – | – | EC50 | < 1000 nM |
| CCCSc1nc(N[C@@H]2C[C@H]2c2ccc(F)c(F)c2)c2nnn([C@@H]3C[C@H](OCCO)[C@@H](O)[C@H]3O)c2n1 | – | – | STEMI patients, plasma | 180 mg loading dose, 6 h, added: fentanyl | – | plasma concentration | 551 ± 507 ng/mL |
| O=CN1CC[C@]23c4c5ccc(O)c4O[C@H]2[C@@H](O)C=C[C@H]3[C@H]1C5 | Oprm1 (Rattus norvegicus, UniProt P33535) | – | – | – | reference: Ki delta over Ki mu | selectivity ratio | 49 |
| CCN(CC)Cc1cc(N)ccc1O | Acetylcholinesterase, paraoxon-inhibited (ACHE, Homo sapiens, UniProt P22303) | reactivation of inhibited enzyme, reactivator | – | added: 1-inhibited enzyme | – | Hill coefficient | 2.8 ± 0.23 |
| CCOP(=O)(OCC)Oc1ccc([N+](=O)[O-])cc1 | Cholinesterase (Bche, Mus musculus, UniProt Q03311) | – | ES1-/- mice, plasma | subcutaneous, 0.2 mg/kg, 0.5 h, toxicant challenge | – | inhibition | 61 ± 5.5% |
| CC1(C)S[C@@H]2[C@H](I)C(=O)N2[C@H]1C(=O)O | D-alanyl-D-alanine carboxypeptidase (Actinomadura sp. R39, UniProt P39045) | covalent inhibitor, reporter substrate hydrolysis | – | pH 7.2, 30 °C, 100 mM D-alanine, added: thioester substrate 100 µM | – | k2/K | 52300 ± 6400 M⁻¹ s⁻¹ |
| COC(=O)[C@H]1[C@@H](OC(=O)c2ccccc2)C[C@@H]2CC[C@H]1N2C | calf ventricular sodium channel | – | – | added: batrachotoxin | reference: KD (+) over KD (-) | stereoselectivity ratio | ~90 |
| CC(C)OP(=S)(OC(C)C)SCCNS(=O)(=O)c1ccccc1 | ACHE (Homo sapiens, UniProt P22303) | enzyme activity, inhibitor, colorimetric | – | no microsomes | – | IC50 | inactive |
| C[C@@H]1NC(=O)[C@H](CCCNC(=N)N)NC(=O)[C@H](CCCNC(=N)N)NC(=O)[C@H](Cc2c[nH]cn2)NC(=O)[C@H](CO)NC(=O)[C@H](CCCCN)NC(=O)[C@@H]2CSSC[C@H](NC(=O)CN)C(=O)N[C@@H](CSSC[C@@H](C(N)=O)NC(=O)[C@H](CCCNC(=N)N)NC1=O)C(=O)N[C@@H](CO)C(=O)N[C@@H](Cc1c[nH]cn1)C(=O)N1CCC[C@H]1C(=O)N[C@@H](C)C(=O)N2 | CHRNA7 (Homo sapiens, UniProt P36544) | ion current, antagonist | Xenopus oocytes | 10 µM, 5 min, added: acetylcholine | reference: control | remaining response | 13 ± 7% |

Some of these lines once more:
| SMILES | target or system | test | test system | conditions | how to read | endpoint | value |
| --- | --- | --- | --- | --- | --- | --- | --- |
| COC(=O)[C@H]1[C@@H](OC(=O)c2ccccc2)C[C@@H]2CC[C@H]1N2C | calf ventricular sodium channel | – | – | added: batrachotoxin | reference: KD (+) over KD (-) | stereoselectivity ratio | ~90 |
